Results from different studies.
Parts stem from different laboratories: compare values within a part only.

Block 1
Target: Centromere-binding protein 1, full length, N-terminal tag (CBF1, Saccharomyces cerevisiae, UniProt P17106, residues 1-351)
UniProt P17106, sequence (whole entry, looked up): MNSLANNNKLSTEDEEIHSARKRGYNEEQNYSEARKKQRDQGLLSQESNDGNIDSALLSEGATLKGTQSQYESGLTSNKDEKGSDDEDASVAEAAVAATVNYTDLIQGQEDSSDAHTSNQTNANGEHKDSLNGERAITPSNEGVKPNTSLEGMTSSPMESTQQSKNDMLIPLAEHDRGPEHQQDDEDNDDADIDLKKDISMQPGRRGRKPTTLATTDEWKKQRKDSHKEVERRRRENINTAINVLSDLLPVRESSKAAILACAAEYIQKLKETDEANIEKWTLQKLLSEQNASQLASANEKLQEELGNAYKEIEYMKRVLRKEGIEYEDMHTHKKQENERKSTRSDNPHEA
Technique: protein-binding microarray
Form: double-stranded DNA, one strand shown
Matrix: in vitro
Concentration: 0.8 µM
Notes: whole 60-bp probe, no competitor
Reading: higher = stronger binding
Endpoint: fluorescence intensity
Strand = CTAGCATTGCACCTTGTCGTGATGTATTCTAAGTTCGTCTTGATTCGCTTGACGCTGCTG; result = 600 a.u.
Strand = CTAGCTTTGTAATCGCATGTGAGATAATCAAGGTTCGTCTTGATTCGCTTGACGCTGCTG; result = 648 a.u.
Strand = CTAATCGAGTGAAGTATCGTGACTTGTACATTTTTCGTCTTGATTCGCTTGACGCTGCTG; result = 1380 a.u.
Strand = CTAAAAAACCAAACTCACGCAACTAATTATTCCTTCGTCTTGATTCGCTTGACGCTGCTG; result = 513 a.u.

Block 2
Target: Prothrombin, mature alpha-thrombin (F2, Homo sapiens, UniProt P00734)
Technique: aptamer microarray, sandwich
Form: DNA with 2'F-ANA
Matrix: in vitro
Concentration: 200 nM
Notes: whole 15-mer aptamer, many near background
Together with: Cy3 exosite-II aptamer, 400 nM
Reading: higher = stronger binding
Endpoint: mean fluorescence intensity
Strand: GGTTGGTGTGGTTGG
Modification = 2'F-ANA at 1 2 3 4 7 15; result = 193 a.u.
Modification = 2'F-ANA at 1 3 4 7 8 10 15; result = 126 a.u.
Modification = 2'F-ANA at 1 2 4 5 7 9 13 14 15; result = 46.5 a.u.
Modification = 2'F-ANA at 4 5 6 8 9 10 11 13; result = 52.6 a.u.
Modification = 2'F-ANA at 3 5 7 8 9 10 11 12 13 14 15; result = 55.4 a.u.

Block 3
Target: Histone acetyltransferase KAT6A, winged helix 1, GST fusion (KAT6A, Homo sapiens, UniProt Q92794, residues 1-85)
Technique: protein binding microarray
Form: double-stranded DNA, one strand shown
Matrix: in vitro
Concentration: not given
Notes: 8-mer, flanks averaged, mean of 2 arrays, mostly near background
Reference: not given
Reading: higher = stronger binding
Endpoint: E-score
Target sequence (chain): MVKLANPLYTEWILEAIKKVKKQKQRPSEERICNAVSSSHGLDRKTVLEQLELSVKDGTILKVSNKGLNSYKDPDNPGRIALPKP
Strand = GCATGGTA; result = 0.0997
Strand = AATGATAA; result = -0.109
Strand = GCGCTACC; result = 0.361
Strand = AGCATTTG; result = -0.238

Further values, each from its own experiment
Molecule = PhoQ, residues 284 288 289 292 302 303 SLSVQF; target = PhoP, residues 12 14 15 18 19 LWHVM (Escherichia coli, UniProt P23836); test = Sort-seq, measured: YFP reporter; test system = E. coli; conditions = PhoQ-PhoP variant library, together with: 10 µM Mg2+; how to read = reference: high Mg2+ state, higher = stronger signaling; endpoint = fold induction; result = 1.36

A few entries again (block 2):
Modification = 2'F-ANA at 4 5 6 8 9 10 11 13; result = 52.6 a.u.
Modification = 2'F-ANA at 3 5 7 8 9 10 11 12 13 14 15; result = 55.4 a.u.
